# Published values from different studies.
# Each line is one published result; not all experiments were run side by side. Numbers after ± are the reported error.
Compound,test,system,setting,how to read,endpoint,value
CCOC(=O)c1[nH]c(C)c(/C=C/C2=[N+]3C(=C(c4cc(OC)cc(OC)c4)c4c(C)c(I)c(/C=C/c5c(C)[nH]c(C(=O)OCC)c5C)n4[B-]3(F)F)C(C)=C2I)c1C,,DMSO,,,log molar absorptivity,4.96 M⁻¹ cm⁻¹
CC(C)C(=O)NC1CC=C(c2cc3c(Nc4ccc5scnc5c4)ncnc3s2)CC1 (centres unmarked),,"BALB/c mouse, plasma","oral, 10 mg/kg, 2 h",,concentration,125 ng/mL
C#CCOc1ccc(/C=C2\SC(=O)N(CC(=O)NCc3ccccc3)C2=O)cc1,inverse Kirkwood-Buff integrals,binary solvent mixture,"298.15 K, mole fraction x1 0.00",,"Kirkwood-Buff integral G1,3",-6220 cm³/mol
C=C(C)C(=O)Nc1ccc(-c2c(-c3ccc(Oc4nccc(C)n4)cc3)c3c(N)ncnc3n2C)cc1,,"cynomolgus monkey, plasma","intravenous, dose not given",,half-life,1.4 h
Cc1cc2c(cc1C1(c3ncc(C(=O)O)cn3)CC1)C(C)(C)CCC2(C)C,,"Sprague-Dawley rat, male, plasma","oral, 100 mg/kg, 1 h, sesame oil vehicle",,HDL level,81 ± 3.6 mg/dL
COc1cnc2cccc(N3CCc4c(cc(Cn5ccnc5)cc4-c4cn(C)nc4C(F)(F)F)C3=O)c2c1,,mouse whole blood,"1 µM, 4 h, pH 7.4",,whole blood protein binding,97.8 ± 0.2%
CCC/C(=C\C1=C(F)C(=O)c2ccccc2C1=O)C(=O)N(CC)CC,,human liver S9,"1 µM, phase II UGT conditions",,CLint,3.7 mL/min/kg
COc1ccc(S(=O)(=O)N/N=C/c2ccc(C#N)cc2)cc1OC,,male Wistar rat liver microsomes,"10 µM, 3 h, pH 7.4, together with: NADPH",,compound consumed,~50%
O=C(O)C1CN(Cc2ccc(-c3noc(-c4ccc(OCC[18F])c(C(F)(F)F)c4)n3)cc2)C1,,C57BL/6 mouse LPS-treated,30 min post-injection,baseline: sham mice,liver uptake,increased
CCC/C(=C\C1=C(OC)C(=O)c2ccccc2C1=O)C(=O)NOC,,human liver S9,"1 µM, phase II UGT conditions",,CLint,4.7 mL/min/kg
COc1ccc2cc(-c3ccc(-c4ccc(C)cn4)nc3)oc2c1,,MeCN,together with: quinine bisulfate reference,,fluorescence quantum yield,0.91
Cc1ccc(CNC(=O)Cc2ccc(-c3ccc(OCCN4CCOCC4)cc3)cn2)cc1,,"human, plasma",,,unbound fraction,0.065
CCC(=O)N(C)c1ccc(Cl)c(Cl)c1,,"mouse, plasma","subcutaneous, 40 mg/kg, 1 h",,concentration,7.07 µM
CN=C(NC)NCCC[C@H](NC(=O)[C@@H]1CCCN1C(=O)[C@H](CCCNC(=N)N)NC(=O)CNC(=O)c1ccc2c(c1)C1(OC2=O)c2ccc(O)cc2Oc2cc(O)ccc21)C(=O)N[C@@H](C)C(=O)N[C@@H](C)C(=O)N[C@H](C(=O)N[C@@H](Cc1ccccc1)C(=O)N[C@@H](C)C(=O)N[C@@H](CCC(=O)O)C(=O)NCC(N)=O)[C@@H](C)O,,HeLa cytosolic lysate,"1 µM, 37 °C",,t1/2,8 min
OCc1[nH]nc2c1N=C(c1ccccc1Cl)c1cnc(N3CCOCC3)cc1N2,,"human male, urine","oral, 10 mg, 0-72 h",baseline: dose,urinary excretion,0.46%
COc1ccc2nnn(C(=O)N3COCC3(C)C)c2c1,,mouse liver microsomes,"50 µM, 1 h",,compound remaining,0%
CC(C)Cn1c(SCC(=O)N2CCc3ccccc3C2)nc2cc(Cl)ccc2c1=O,,"male C57BL/6 mouse, brain","intraperitoneal, 10 mg/kg, 6 h",,concentration,0.764 µM
C[C@H]1CO[C@@H]2Cn3cc(C(=O)NCc4ccc(F)cc4F)c(=O)c(O[C@@H]4O[C@H](C(=O)O)[C@@H](O)[C@H](O)[C@H]4O)c3C(=O)N12,LC-MS/MS,"human, UGT1A9 wild-type, plasma","intramuscular, dose not given, 1 weeks after first injection",,plasma concentration,55.1 ± 76.6 ng/mL
NC12CNCCNCC(NCc3ccc(CNC(=O)CCCC(=O)NCc4ccc(-c5nncnn5)cc4)cc3)(CNCCNC1)CNCCNC2.[64Cu+2],OLINDA dosimetry,total body,"pretargeting, 24-h interval",,mean absorbed dose,0.038 rad/mCi
CC(=O)N[C@H](CC(=O)O)C(=O)N[C@H](Cc1c[nH]c2ccccc12)C(=O)N[C@H](Cc1ccccc1)C(=O)N[C@H](CCCCN)C(=O)N[C@H](C)C(=O)N[C@H](Cc1ccccc1)C(=O)N[C@H](Cc1ccc(O)cc1)C(=O)N[C@H](CC(=O)O)C(=O)N[C@H](CCCCN)C(=O)N[C@@H](C(=O)N[C@H](C)C(=O)N[C@H](CCC(=O)O)C(=O)N[C@H](CCCCN)C(=O)N[C@H](Cc1ccccc1)C(=O)N[C@H](CCCCN)C(=O)N[C@H](CCC(=O)O)C(=O)N[C@H](C)C(=O)N[C@H](Cc1ccccc1)C(N)=O)C(C)C,,"statin-treated high-risk CHD men, plasma","oral, 100 mg daily, day 13, 0 to 8 h, mean, detected subjects only",,AUC(0-t),8.33 ng·h/mL
COC(=O)C(c1ccccc1Cl)N1CCC(SCC(=O)c2cccc(OC)c2)C(=CC(=O)O)C1 (mixture of isomers),HPLC-MS/MS,feline citrate plasma,"100 ng/mL, 48 h, -80 °C, storage stability",,deviation from nominal,10%
CC(=O)N[C@@H](CO)C(=O)N[C@@H](CC(=O)O)C(=O)N[C@@H](CCCCN)C(=O)N1CCC[C@H]1C(=O)O,H&E histology,rat embolic MCAO model,"dose not given, start 4 h after MCAO, read day 7",,haemorrhage incidence,14%
OC1(C(F)(F)F)CCN(c2nc(Nc3ccnc(C(F)(F)F)c3)nc(-c3cccc(C(F)(F)F)n3)n2)C1 (centres unmarked),,"monkey, both sexes","oral, 1 mg/kg daily for 14 days",baseline: day 14 over day 1,AUC(0-24h) accumulation ratio,5.4
COc1ccc(-c2ccn(CC[C@](C)(C(=O)NO)S(C)(=O)=O)c(=O)c2)c(F)c1,,"CF-1 mouse, female","subcutaneous, 300 mg/kg",,half-life,0.68 ± 0.03 h
C=CC(=O)Nc1cc(Nc2nccc(-c3cn(C4CC4)c4ccccc34)n2)c(OC)cc1NC,radiolabelled metabolite profiling,"human male, plasma","oral, 110 mg, 6 h",,plasma concentration,7.61 ng/g
Cc1ccc(/N=N/c2c(O)ccc3ccccc23)c(C)c1,,rat whole blood QC samples,"5.0 µg/L, 8 h, room temperature, short-term stability",,measured concentration,5.25 µg/L
NS(=O)(=O)c1ccc(N2N=C(C(F)(F)F)CC2c2ccc(F)cc2F)cc1 (centres unmarked),,"beagle dog, plasma","oral, 1 mg/kg, single dose",,AUC(0-inf),14900 ng·h/mL
C[N+]1(CC(=O)OC2CCCCCCCCCCC2)CCCCC1,,"mouse, plasma","intraperitoneal, 5 mg/kg, single dose",,Cmax,600 ng/mL
CC(C)(O)c1ncc([S@](N)(=O)=NC(=O)Nc2c3c(cc4c2CCC4)CCC3)s1,,"healthy human, fasted","oral, 30 mg single dose, capsule formulation",,AUC(0-last)/dose,923 ng·h/mL/mg
NC[C@@H](C(=O)Nc1ccc(-c2cn[nH]c2)cc1)c1ccccc1,"OECD 405, refers to: Chemosis",New Zealand White rabbit,"topical, 0.1 %, 73 h, day 4",direction not given,ocular irritation score,0
CCCC[C@@H]1NC(=O)[C@@H](NC(=O)[C@H](CCC(=O)O)NC(=O)CNC(=O)CN2CCN(CC(=O)O)CCN(CC(=O)O)CCN(CC(=O)O)CC2)CCCCNC(=O)C[C@@H](C(N)=O)NC(=O)[C@H](C(C)C)NC(=O)[C@@H]2CCCN2C(=O)[C@H](CCCNC(=N)N)NC(=O)CNC(=O)[C@H](Cc2c[nH]c3ccccc23)NC(=O)[C@H](CCCNC(=N)N)NC(=O)[C@@H](Cc2ccccc2)NC(=O)[C@H](Cc2c[nH]cn2)NC(=O)[C@H](CCC(=O)O)NC1=O [gallium-67 labelled],,"C57 mice with B16/F1 melanoma, stomach","intravenous, 0.037 MBq, 24 h",,tissue uptake,0.07 ± 0.04 %ID/g
C=C(c1ncc(C(=O)O)cn1)c1cc2c(cc1C)C(C)(C)CCC2(C)C,,"Sprague-Dawley rat, male, plasma","oral, 100 mg/kg, 24 h, sesame oil vehicle",,HDL level,37 ± 3.1 mg/dL
COc1cc(NC(C)=O)c2c(c1O)-c1c(OC)c(OC)cc3c1C(C2)N(C)CC3 (centres unmarked),,rat lung homogenate,"100 µg/mL, 40 d, -20 °C, long-term storage",,remaining compound,90.2 ± 4.1%
N=C(N)NCCC[C@@H]1NC(=O)[C@H](Cc2c[nH]c3ccccc23)NC(=O)[C@@H](CC2CCCCC2)NC(=O)[C@@H]2CCCN2C(=O)[C@@H](NC(=O)CCc2ccccc2)CCCNC1=O,,"C57BL/6J mice, brain","intraperitoneal, 1 mg/kg, two-compartment model",,apparent peripheral volume (V2/F),0.19 µg/(ng/g)
COc1cc2c(cc1OC)CN(CCCCn1ccc3cc(OCC[18F])ccc31)C2,,"ICR mice, male, stomach","intravenous, 15 min",,uptake,2.87 ± 0.32 %ID/organ
Cc1ccc(OCC(=O)O)cc1,,"Sprague-Dawley rat, female, plasma","oral gavage, 10 mg/kg of parent drug",,AUC(0-last),7700 ± 1440 ng·h/mL
C[C@H](CN(C)Cc1ccccc1)NC(=O)c1ccc(-c2noc(C(F)(F)[18F])n2)cc1,PET,"Sprague-Dawley rat, female, brain and muscle","intravenous, 1 min",baseline: brain SUV over muscle SUV,brain-to-muscle ratio,7.4 ± 0.62
Cc1cccc(Cn2ncc3c4cc(F)c(CN(C)C)cc4n(C)c3c2=O)n1,,"mouse, retina","intraperitoneal, 25 and 50 mg/kg",,half-life of PK activation,~576 h
CCNC(=O)OCc1c(COC(=O)NCC)c(-c2ccc(OC)cc2)n2c1Cc1ccccc1-2,,"BALB/c nude mice, blood","concentration not given, day 10",,blood urea nitrogen,18.6 ± 1.3 mg/dL
COc1cc(O)c(-c2cc(-c3cc(-c4c(O)cc(OC)c5c4C[C@@H](C)N[C@@H]5C)c4cc(C)cc(OC)c4c3O)c(O)c3c(OC)cc(C)cc23)c2c1[C@@H](C)N[C@H](C)C2,metabolic stability,"male CD-1 mouse, liver microsomes","1 µM, 30 min",,compound remaining,99%
C=C(c1ccc(C(=O)O)c(F)c1)c1cc2c(cc1C)C(C)(C)C=CC2(C)C,,"Sprague-Dawley rat, male, plasma","oral, 100 mg/kg, 6 h, sesame oil vehicle",,HDL level,58 ± 11 mg/dL
CC(C)[C@H](NC(=O)CNC(=O)[C@H](CCC(N)=O)NC(=O)[C@H](C)N)C(=O)O,,"human, both sexes, plasma","intravenous infusion, 15 mg/kg/h, 2 h infusion, geometric mean",,AUC(0-inf),553 ng·h/mL
CCCC[C@H](NC(=O)CNC(=O)CNC(=O)CN1CCN(CC(=O)O)CCN(CC(=O)O)CCN(CC(=O)O)CC1)C(=O)N[C@H]1CC(=O)NCCCC[C@@H](C(N)=O)NC(=O)[C@H](Cc2c[nH]c3ccccc23)NC(=O)[C@H](CCCNC(=N)N)NC(=O)[C@@H](Cc2ccccc2)NC(=O)[C@H](Cc2c[nH]cn2)NC1=O [copper-64 labelled],,"female C57 mouse, B16/F1 melanoma, bone","intravenous, 0.037 MBq, 2 h",,tissue uptake,0.82 ± 0.28 %ID/g
Cn1c(=O)oc2ccc(-c3ccc(CC(C#N)NC(=O)C4CNCCCO4)c(F)c3)cc21 (centres unmarked),,human,"oral, 10 mg once daily, TEAE, multiple ascending dose",,chest pain incidence,11.1%
